Measurements pooled from the literature.
Target: Serine/threonine-protein kinase Nek11 (NEK11, Homo sapiens, UniProt Q8NG66)

CNC(=O)C[C@H](Cc1ccc(C#N)cc1)NC(=O)c1cc(-c2ccc(CN[C@H](C)c3ccc(C)cc3)o2)ccc1Cl — result for “activity vs control”: 112% (enzyme activity, inhibitor; 1 µM).
C=CC(=O)N1CCCC(n2c(=O)c3ncccc3n(Cc3ccc(Oc4ccccc4)cc3)c2=O)C1 (stereo not shown) gave a remaining binding of 55% (cell-free assay, competition with immobilised ligand; 1 µM).
For CNC(=O)C1CCN(c2cc(C)c(F)cc2NC(=O)c2ccc(-c3cc(O)ccc3C)c(C)c2)CC1, the remaining binding was 58% (binding, competition with immobilised ligand; 1 µM).
COc1ccc(C(=O)/C=C/c2ccccc2-c2c[nH]c3ccc(C#N)cc23)c(O)c1 has an inhibition of 20% (enzyme activity, inhibitor; 20 µM).
COc1cc(Nc2nc(C)cc(-c3cnn4nc(OC)ccc34)n2)cc(C(F)(F)F)c1 has a remaining activity of 99% (inhibitor; 1 µM; reference: control).
The inhibition of Cc1nc2c(F)cc(-c3nc(Nc4ccc(CNC(=O)CCCCCCC(=O)NO)cc4)ncc3F)cc2n1C(C)C is reported as 72% (enzyme activity, inhibitor; 1 µM).
For COc1c(OCCCN2CCOCC2)ccc2c1N=C(NC(=O)c1cnc(N)nc1)N1CCN=C21, the remaining activity was 137% (kinase activity, inhibitor; 1 µM; reference: untreated control).
Nc1ncc(-c2cc(-c3cnn(CC(F)(F)F)c3)ncc2F)nc1C(=O)NC1CNCC(F)C1 (stereo not shown) has a remaining activity of 87.4% (enzyme activity; 1 µM; reference: DMSO control).
COCC12C(=O)NC3C4(C(OC)CC1O)C1CC5(O)C(OC)C(O)C(OC(C)=O)(C1C5OC(=O)c1ccccc1)C3(O)C(OC)C24 (stereo not shown) gave a remaining activity of 97% (kinase activity, inhibitor, ProQinase kinase profiling; 25 µM; reference: control).
NC(=O)[C@@H](O)C[C@H]1CCc2sc3ncnc(O[C@H]4CC[C@H](N5CCOCC5)CC4)c3c21 has an inhibition of -1% (enzyme activity, inhibitor; 10 µM).
CNC1C[S+]2CC[S+]3CC[S+](C1)[Ru-4]321([N]=C=S)[n]2c3ccc(OC)cc3c3c4c(c5cc(F)c[n+]1c5c32)C(=O)NC4=O (stereo not shown) gave a remaining binding of 98% (KinomeScan; 0.1 µM; reference: untreated).
For COc1c(Cl)cccc1Nc1c(-c2ccncc2C#C[C@@]2(C)CCCN2C(=O)/C=C/CN(C)C)[nH]c2c1C(=O)NCC2, the remaining binding was 98% (binding, competition with immobilised ligand; 3 µM).
The remaining binding of CC(C)=CC1OC(C)(C)C2C=C3C(=O)C(Cl)=CC(O)C3C3C(O)C4OC4C(=O)C132 (stereo not shown) is reported as 100% (cell-free assay, competition with immobilised ligand; 10 µM).
